Results from different studies.
Parts stem from different laboratories: compare values within a part only. Changes are numbered by the printed parent chain.
Sequence of UniProt Q9H0K1 (whole entry, looked up): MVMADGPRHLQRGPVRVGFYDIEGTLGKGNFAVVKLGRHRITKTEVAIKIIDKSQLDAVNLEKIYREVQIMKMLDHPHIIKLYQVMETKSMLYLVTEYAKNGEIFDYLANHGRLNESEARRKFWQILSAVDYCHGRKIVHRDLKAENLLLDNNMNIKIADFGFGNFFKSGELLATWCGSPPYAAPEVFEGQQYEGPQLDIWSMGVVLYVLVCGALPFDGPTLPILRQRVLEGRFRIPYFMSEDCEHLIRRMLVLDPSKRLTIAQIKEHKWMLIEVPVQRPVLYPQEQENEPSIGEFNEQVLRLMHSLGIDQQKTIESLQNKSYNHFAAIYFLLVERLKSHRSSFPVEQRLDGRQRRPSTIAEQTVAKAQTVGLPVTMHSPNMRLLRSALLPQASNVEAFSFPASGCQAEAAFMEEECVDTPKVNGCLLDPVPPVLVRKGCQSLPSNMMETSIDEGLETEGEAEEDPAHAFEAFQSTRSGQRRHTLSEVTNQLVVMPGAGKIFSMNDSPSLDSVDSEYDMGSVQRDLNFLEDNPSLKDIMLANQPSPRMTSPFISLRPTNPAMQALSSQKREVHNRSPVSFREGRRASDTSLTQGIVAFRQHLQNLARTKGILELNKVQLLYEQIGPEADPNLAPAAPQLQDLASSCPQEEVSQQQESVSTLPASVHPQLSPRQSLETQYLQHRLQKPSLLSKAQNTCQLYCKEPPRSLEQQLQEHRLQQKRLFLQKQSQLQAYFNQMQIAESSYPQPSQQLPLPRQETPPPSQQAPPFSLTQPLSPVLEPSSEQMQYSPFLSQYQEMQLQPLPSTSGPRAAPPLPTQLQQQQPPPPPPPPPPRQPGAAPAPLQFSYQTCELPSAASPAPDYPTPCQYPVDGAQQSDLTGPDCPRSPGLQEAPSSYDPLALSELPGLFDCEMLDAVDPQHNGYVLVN

Series 1
Target: RNA binding protein fox-1 homolog 2, RRM domain, GST-SBP tag (RBFOX2, Homo sapiens, UniProt O43251-10, residues 100-194)
Technique: RNA Bind-n-Seq
Molecule type: RNA
Sample: in vitro
Tested at: 365 nM
Setting: natural RNA segment, single round, ends assumed
Baseline: no-protein control
Direction: higher = stronger binding
All sequences stand within: GGGAGUUCUACAGUCCGACGAUC … UGGAAUUCUCGGGUGCCAA
Construct (chain): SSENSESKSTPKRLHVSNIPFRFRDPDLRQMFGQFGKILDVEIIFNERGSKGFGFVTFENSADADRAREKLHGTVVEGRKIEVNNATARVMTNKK
Oligonucleotide	RBNS enrichment (R)
ACUGUCUGCUGCCGCCUGCCGGGGUGGCAGAGUGAGUUGUCUCAGGACCCCGUCACUGCGACGUUGACACUCCUCUCCCUUCCCUUCCUCCCCAACUCCCCAAACACUGU	2.45
AGCCUGGCCCAGCUCCCCCGGGAGGGGCCCGCUUGCCUCGGCUCCUGCUGCACCAACCCAGCCGCUGCCCGGCGCCCUCUGUCCUGACUUCAGGGGCUGCCCGCUCCCAG	0.552
AACCAGAAGGAAGGGAAGGAGUUUUUGAAAAACUACCAGAAGACGAAGUUUGACACCUAUAUCCCCAUGUUUUGUGACUACAUCCCGUAGUGUCCUGCCUAUUCCUUUCU	0.332
UGAUGGGGUCUAAUUCUUAUUACUUCAACAAAUAUUGUUUUGACUUGGGGGGAGGGGCUAUAACCCUGCUAUUUUUCAUUGACUCUAUUGAACUCUUUAGGAUGAUGACU	0.591
AAUGGUUUUUUCACUGCCUGACCUUUAAAAGGCCAUCGAUAUUCUUUGCUCUUGCCAAAAUUGCACUAUUAUAGGACUUGUAUUGUUAUUUAAAUUACUGGAUUCUAAGG	1.68
UUCAUGAAUCUUUCAUACAUAUAUAUAUUUGUAACAUUGUAAAGUAUGUGAGUAGUCUUAUGUAAAGUAUGUUUUUACAUUAUGCAAAUAAAACCCAAUACUUUUGUCCA	0.653
CUGGUACCGUGGAGCUUUAUUUUGCUAUUGAACGCCAAGCUGAAUGUGAGUGACAGGGAACAAUCCCAGCUCUGGGCUCUGCAGAAACUCACAAACUAAACUCCUUUCUG	0.584
UUCCCAGAGUUCUGGCAGGCAUCCGCACCAUGGGGAAGCUUCAUCUACCAAUGAUUGUUUAGCUAGCAAGAAUGGUAAGACUGAGGCACCAGUGAGUGAGCAAACCACUU	0.334

Series 2
Target: CCNB2, cyclin fold, Cln2 fusion (human)
Technique: yeast growth competition, sequencing
Sample: yeast
Setting: weak parent motif
Baseline: not given
Direction: higher = stronger binding
Starting sequence: SAMHD1 docking peptide (human); ASKSRVQLFKDDP; partner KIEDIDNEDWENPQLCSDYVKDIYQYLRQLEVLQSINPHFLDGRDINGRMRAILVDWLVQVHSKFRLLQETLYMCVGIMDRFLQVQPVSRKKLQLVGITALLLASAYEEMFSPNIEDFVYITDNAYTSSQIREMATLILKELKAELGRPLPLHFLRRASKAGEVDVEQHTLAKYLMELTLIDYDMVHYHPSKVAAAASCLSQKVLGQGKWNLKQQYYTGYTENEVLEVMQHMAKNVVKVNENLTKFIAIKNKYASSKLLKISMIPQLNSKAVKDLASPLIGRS
Variant	normalised enrichment score
L8Q	0.0914
D12N	-0.172
F9D	0.781
K3T	-0.161
S4C	0.939
R5H	-0.0616
D12L	-0.103
F9V	0.742

Series 3
Target: Prothrombin, mature alpha-thrombin (F2, Homo sapiens, UniProt P00734)
Technique: aptamer microarray, sandwich
Molecule type: DNA with 2'F-ANA
Sample: in vitro
Tested at: 200 nM
Setting: whole 15-mer aptamer, many near background
Together with: Cy3 exosite-II aptamer, 400 nM
Direction: higher = stronger binding
Oligonucleotide: GGTTGGTGTGGTTGG
Modification	mean fluorescence intensity [a.u.]
2'F-ANA at 1 2 4 9 10 14	48.4
2'F-ANA at 2 4 6 8 9 12 13 14 15	87.6
2'F-ANA at 5 6 7 8 9 11 12 15	136
2'F-ANA at 1 2 3 4 7 10 12	91.4
2'F-ANA at 2 4 6 7 9 10 11 12 13 14	73.5
2'F-ANA at 3 5 6 9 10 12 15	78
2'F-ANA at 1 2 4 5 6 7 8 9 10 11	94.5
2'F-ANA at 1 4 6 7 8 9 10 13	51.3

Other studies, line by line
Compound	target	observed	action	tested at	baseline	quantity	result
COc1ccc(S(=O)(=O)N(CCO)c2ccccc2CN(C)CC=Cc2ccc(Cl)cc2)cc1	Serine/threonine-protein kinase SIK2 (SIK2, Homo sapiens, UniProt Q9H0K1)	enzyme activity	inhibitor	0.5 µM	control	remaining activity	97.4%

Some of these lines once more (other studies, line by line):
Compound	target	observed	action	tested at	baseline	quantity	result
COc1ccc(S(=O)(=O)N(CCO)c2ccccc2CN(C)CC=Cc2ccc(Cl)cc2)cc1	Serine/threonine-protein kinase SIK2 (SIK2, Homo sapiens, UniProt Q9H0K1)	enzyme activity	inhibitor	0.5 µM	control	remaining activity	97.4%
